Results of several laboratories.
Lines come from different studies, so protocols differ. Several values in a cell are separate wells, animals, samples, runs or records. ± marks the error that the study gave.
PRKAA1 with beta1, gamma1: 5'-AMP-activated protein kinase catalytic subunit alpha-1, with beta1, gamma1 (PRKAA1, Homo sapiens, UniProt Q13131)
PRKAA1: 5'-AMP-activated protein kinase catalytic subunit alpha-1 (PRKAA1, Homo sapiens, UniProt Q13131)

With Cc1cccc(O[C@H]2CCC[C@@H](C(C)CNCc3ccncc3)C2)c1 (relative stereo) the inhibition was 5% (PRKAA1 with beta1, gamma1; kinome profiling; 10 µM).
With CNC(=O)C[C@H](Cc1ccc(C#N)cc1)NC(=O)c1cc(-c2ccc(CN[C@H](C)c3ccc(C)cc3)o2)ccc1Cl the remaining activity was 89% (PRKAA1; enzyme activity, KinaseProfiler panel; 1 µM).
CC(C)=CC1OC(C)(C)C2C=C3C(=O)C(Cl)=CC(O)C3C3C(O)C4OC4C(=O)C132 (stereo not shown) gave a remaining binding of 88% (PRKAA1; cell-free assay, competition with immobilised ligand; 10 µM).
CCCCCCCCCCCCC/C=C/C=O — result for “isoTOP-ABPP competition ratio”: 1.2 (PRKAA1; competitive isoTOP-ABPP; Ramos soluble proteome; 100 µM, with: iodoacetamide probe; relative to: DMSO over compound-treated, higher = stronger cysteine blockade).
With O=C(O)CCC(=O)c1cccc(NS(=O)(=O)c2c[nH]c3ncccc23)c1 the remaining activity was 90% (PRKAA1; kinase activity, radiometric; 10 µM).
With COc1ccc(C(=O)/C=C/c2ccccc2-c2c[nH]c3ccc(C#N)cc23)c(O)c1 the inhibition was 9% (PRKAA1; enzyme activity, inhibitor; 20 µM).
The inhibition of C=CC(=O)N1Cc2nc(-c3cc(-c4cc(Cl)cnc4Cl)c(F)cc3F)n(-c3ccncn3)c2C1 is reported as 5% (5'-AMP-activated protein kinase catalytic subunit alpha-1, with beta2, gamma2 (PRKAA1, Homo sapiens, UniProt Q13131); kinome panel; 1 µM).
For CCn1cc(C(=O)O)c(=O)c2c(N)c(F)c(NC3CCCCC3)cc21, the inhibition was -1.6% (5'-AMP-activated protein kinase catalytic subunit alpha-1, with beta2, gamma3 (PRKAA1, Homo sapiens, UniProt Q13131); kinase activity; 0.1 µM, with: ATP at Km).
The remaining activity of COCC12C(=O)NC3C4(C(OC)CC1O)C1CC5(O)C(OC)C(O)C(OC(C)=O)(C1C5OC(=O)c1ccccc1)C3(O)C(OC)C24 (stereo not shown) is reported as 87% and 93% (PRKAA1; kinase activity, inhibitor, ProQinase kinase profiling; 25 µM; relative to: control).
CNC1C[S+]2CC[S+]3CC[S+](C1)[Ru-4]321([N]=C=S)[n]2c3ccc(OC)cc3c3c4c(c5cc(F)c[n+]1c5c32)C(=O)NC4=O (stereo not shown) has a remaining binding of 100% (PRKAA1; KinomeScan; 0.1 µM; relative to: untreated).
The inhibition of COc1ccc(O)cc1-c1c[nH]c2ncc(-c3cncc(C(=O)N(C)C)c3)cc12 is reported as 36.6 ± 8.66% (PRKAA1 with beta1, gamma1; KINOMEscan; 0.2 µM).
For COc1c(Cl)cccc1Nc1c(-c2ccncc2C#C[C@@]2(C)CCCN2C(=O)/C=C/CN(C)C)[nH]c2c1C(=O)NCC2, the remaining binding was 93% (PRKAA1; binding, competition with immobilised ligand; 3 µM).
With CNC(=O)C1CCN(c2cc(C)c(F)cc2NC(=O)c2ccc(-c3cc(O)ccc3C)c(C)c2)CC1 the remaining binding was 100% (PRKAA1; binding, competition with immobilised ligand; 1 µM).
The inhibition of C=CC(=O)Nc1cccc(-c2cnc3[nH]cc(C(=O)NC(C)(C)C)c3n2)c1 is reported as 49% (PRKAA1 with beta1, gamma1; enzyme activity, inhibitor; 0.1 µM).
The inhibition of CN1CCN(Cc2ccc(-c3ccc(CO[C@H]4CCC[C@@H]4NC(=O)c4cc(-c5cnn(C)c5)cnc4N)cc3)cc2)CC1 is reported as 4% (5'-AMP-activated protein kinase catalytic subunit alpha-1, with beta1, gamma2 (PRKAA1, Homo sapiens, UniProt Q13131); SelectScreen kinase profiling; 0.1 µM).
COc1cc(Nc2nc(C)cc(-c3cnn4nc(OC)ccc34)n2)cc(C(F)(F)F)c1 has a remaining binding of 87% (PRKAA1; KINOMEscan; 1 µM, AMPK-alpha1; relative to: DMSO).

A few entries again:
With CNC(=O)C[C@H](Cc1ccc(C#N)cc1)NC(=O)c1cc(-c2ccc(CN[C@H](C)c3ccc(C)cc3)o2)ccc1Cl the remaining activity was 89% (PRKAA1; enzyme activity, KinaseProfiler panel; 1 µM).
With COc1ccc(C(=O)/C=C/c2ccccc2-c2c[nH]c3ccc(C#N)cc23)c(O)c1 the inhibition was 9% (PRKAA1; enzyme activity, inhibitor; 20 µM).
